# Results from different studies.
# Parts stem from different laboratories: compare values within a part only.
# Chain of UniProt Q92985 (whole entry, unmodified, looked up): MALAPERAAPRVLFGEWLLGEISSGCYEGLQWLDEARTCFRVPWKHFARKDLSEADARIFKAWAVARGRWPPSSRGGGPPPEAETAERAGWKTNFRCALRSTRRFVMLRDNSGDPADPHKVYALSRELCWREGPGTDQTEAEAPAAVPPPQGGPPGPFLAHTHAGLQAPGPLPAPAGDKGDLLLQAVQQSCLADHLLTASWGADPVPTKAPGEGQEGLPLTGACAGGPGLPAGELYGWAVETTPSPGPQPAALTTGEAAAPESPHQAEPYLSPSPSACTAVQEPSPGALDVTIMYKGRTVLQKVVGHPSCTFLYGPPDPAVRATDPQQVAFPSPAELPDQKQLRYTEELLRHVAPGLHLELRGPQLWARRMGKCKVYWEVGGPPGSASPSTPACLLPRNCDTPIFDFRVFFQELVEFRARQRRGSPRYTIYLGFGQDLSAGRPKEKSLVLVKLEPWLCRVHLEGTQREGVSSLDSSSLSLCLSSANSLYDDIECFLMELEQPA

# Study 1
# Target: Histone acetyltransferase KAT6A, winged helix 1, GST fusion (KAT6A, Homo sapiens, UniProt Q92794, residues 1-85)
# Method: protein binding microarray
# Molecule type: double-stranded DNA, one strand shown
# Sample: in vitro
# Tested at: not given
# Notes: 8-mer, flanks averaged, mean of 2 arrays, mostly near background
# Relative to: not given
# Reading: higher = stronger binding
# Residues (chain): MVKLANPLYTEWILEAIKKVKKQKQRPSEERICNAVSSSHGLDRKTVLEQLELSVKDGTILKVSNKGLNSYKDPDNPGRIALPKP
Sequence,E-score
TAACGGTA,0.0491
GTGAGCAC,-0.091
CCACTTAC,-0.152
CGAACACA,-0.144
GACTACCA,-0.153

# Study 2
# Target: Prothrombin, mature alpha-thrombin (F2, Homo sapiens, UniProt P00734)
# Method: aptamer microarray, sandwich
# Molecule type: DNA with 2'F-ANA
# Sample: in vitro
# Tested at: 200 nM
# Notes: whole 15-mer aptamer, many near background
# With: Cy3 exosite-II aptamer, 400 nM
# Reading: higher = stronger binding
# Sequence: GGTTGGTGTGGTTGG
Modification,mean fluorescence intensity [a.u.]
2'F-ANA at 3 4 5 6 7 8 10 15,60.2
2'F-ANA at 1 3 4 5 6 7 8 12 14 15,96.8
2'F-ANA at 1 7 10 11 12,79.4
2'F-ANA at 1 2 5 6 8 9 14 15,45.4
2'F-ANA at 1 4 6 15,129

# Single results of other studies
# IRF3 S386D/S396D/S398D/S402D/T404D/S405D full length, phosphomimetic: Interferon regulatory factor 3, full length, phosphomimetic (IRF3, Homo sapiens, UniProt Q14653, residues 1-427, S386D/S396D/S398D/S402D/T404D/S405D)
# Chain of UniProt Q14653 (whole entry, unmodified, looked up): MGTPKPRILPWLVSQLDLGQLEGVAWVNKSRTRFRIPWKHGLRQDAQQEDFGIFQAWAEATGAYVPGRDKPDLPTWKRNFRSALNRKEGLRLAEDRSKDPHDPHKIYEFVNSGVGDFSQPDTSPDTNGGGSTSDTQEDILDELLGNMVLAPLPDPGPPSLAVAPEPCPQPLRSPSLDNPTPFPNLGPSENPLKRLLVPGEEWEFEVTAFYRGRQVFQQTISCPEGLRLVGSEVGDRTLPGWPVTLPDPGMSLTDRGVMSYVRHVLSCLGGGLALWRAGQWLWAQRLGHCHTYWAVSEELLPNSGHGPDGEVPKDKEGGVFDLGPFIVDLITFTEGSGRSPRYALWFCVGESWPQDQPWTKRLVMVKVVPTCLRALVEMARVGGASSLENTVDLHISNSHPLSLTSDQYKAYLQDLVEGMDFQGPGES
Molecule,target,assay,system,setting,how to read,measurement,value
GCCTAGCACTTAGATCCCAGTTTCGATTAGTGCTAGGTCTTGATTCGCTTGACGCTGCTG,"IRF3 S386D/S396D/S398D/S402D/T404D/S405D full length, phosphomimetic",protein-binding microarray,"double-stranded DNA, one strand shown, in vitro","2540 nM top, 60-bp whole probe, with: salmon DNA 0.4 mg/ml","relative to: random background probes, higher = stronger binding",fitted relative affinity,3.26 z-score
"PhoQ, residues 284 288 289 292 302 303 GNNTDL","PhoP, residues 12 14 15 18 19 LHATL (Escherichia coli, UniProt P23836)","Sort-seq, item: YFP reporter",E. coli,"PhoQ-PhoP variant library, with: 10 µM Mg2+","relative to: high Mg2+ state, higher = stronger signaling",fold induction,2.53
GCCTAGCACTTAGGTTTCGGTCTCGGTGAGTGCTAGGTCTTGATTCGCTTGACGCTGCTG,"IRF3 S386D/S396D/S398D/S402D/T404D/S405D full length, phosphomimetic",protein-binding microarray,"double-stranded DNA, one strand shown, in vitro","2540 nM top, 60-bp whole probe, with: salmon DNA 0.4 mg/ml","relative to: random background probes, higher = stronger binding",fitted relative affinity,9.05 z-score
GCCTAGCACTACGGTTTCGACACTGGGGACGTGCTAGTCTTGATTCGCTTGACGCTGCTG,"Interferon regulatory factor 7, full length, phosphomimetic (IRF7, Homo sapiens, UniProt Q92985, residues 1-503, S471D/S472D/S475D/S476D/S477D/S483D/S484D/S487D)",protein-binding microarray,"double-stranded DNA, one strand shown, in vitro","2200 nM top, 60-bp whole probe, with: salmon DNA 0.4 mg/ml","relative to: random background probes, higher = stronger binding",fitted relative affinity,3.13 z-score

# Excerpt of the above (study 1):
Sequence,E-score
CCACTTAC,-0.152
CGAACACA,-0.144
